# Results pooled from the literature.
# Protein sequences, listed by entry. Tags and fused reporters are not part of them. Lines headed by an entry give the natural chain unless they say otherwise; changes in a name come on top. Residues count along the entry.
# UniProt P03372, whole entry: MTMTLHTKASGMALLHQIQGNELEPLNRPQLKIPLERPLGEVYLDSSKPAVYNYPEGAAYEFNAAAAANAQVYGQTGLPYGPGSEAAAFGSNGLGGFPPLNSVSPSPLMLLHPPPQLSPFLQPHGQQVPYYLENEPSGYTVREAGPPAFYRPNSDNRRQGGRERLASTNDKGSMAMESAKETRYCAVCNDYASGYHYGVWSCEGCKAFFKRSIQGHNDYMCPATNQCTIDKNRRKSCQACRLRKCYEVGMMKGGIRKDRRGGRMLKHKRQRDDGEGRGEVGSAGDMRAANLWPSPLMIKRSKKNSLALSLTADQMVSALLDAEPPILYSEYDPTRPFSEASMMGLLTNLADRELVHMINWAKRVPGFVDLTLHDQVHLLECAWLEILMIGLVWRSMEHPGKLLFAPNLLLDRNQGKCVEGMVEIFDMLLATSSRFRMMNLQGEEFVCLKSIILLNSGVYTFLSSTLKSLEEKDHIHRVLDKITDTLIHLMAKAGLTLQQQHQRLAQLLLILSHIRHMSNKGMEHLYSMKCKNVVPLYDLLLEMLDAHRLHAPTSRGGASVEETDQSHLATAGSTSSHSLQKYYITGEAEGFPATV
# UniProt Q8IXJ6, whole entry, looked up: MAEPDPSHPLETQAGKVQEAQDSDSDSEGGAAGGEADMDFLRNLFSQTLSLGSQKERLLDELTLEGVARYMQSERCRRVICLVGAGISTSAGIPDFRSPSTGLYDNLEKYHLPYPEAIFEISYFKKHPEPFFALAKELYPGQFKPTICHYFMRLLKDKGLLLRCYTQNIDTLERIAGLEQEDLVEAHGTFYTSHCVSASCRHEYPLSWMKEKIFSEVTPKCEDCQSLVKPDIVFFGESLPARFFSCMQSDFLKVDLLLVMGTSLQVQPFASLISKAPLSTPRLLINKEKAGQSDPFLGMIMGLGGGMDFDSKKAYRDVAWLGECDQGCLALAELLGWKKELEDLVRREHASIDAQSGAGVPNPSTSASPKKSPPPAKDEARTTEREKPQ
# UniProt Q5S007, whole entry: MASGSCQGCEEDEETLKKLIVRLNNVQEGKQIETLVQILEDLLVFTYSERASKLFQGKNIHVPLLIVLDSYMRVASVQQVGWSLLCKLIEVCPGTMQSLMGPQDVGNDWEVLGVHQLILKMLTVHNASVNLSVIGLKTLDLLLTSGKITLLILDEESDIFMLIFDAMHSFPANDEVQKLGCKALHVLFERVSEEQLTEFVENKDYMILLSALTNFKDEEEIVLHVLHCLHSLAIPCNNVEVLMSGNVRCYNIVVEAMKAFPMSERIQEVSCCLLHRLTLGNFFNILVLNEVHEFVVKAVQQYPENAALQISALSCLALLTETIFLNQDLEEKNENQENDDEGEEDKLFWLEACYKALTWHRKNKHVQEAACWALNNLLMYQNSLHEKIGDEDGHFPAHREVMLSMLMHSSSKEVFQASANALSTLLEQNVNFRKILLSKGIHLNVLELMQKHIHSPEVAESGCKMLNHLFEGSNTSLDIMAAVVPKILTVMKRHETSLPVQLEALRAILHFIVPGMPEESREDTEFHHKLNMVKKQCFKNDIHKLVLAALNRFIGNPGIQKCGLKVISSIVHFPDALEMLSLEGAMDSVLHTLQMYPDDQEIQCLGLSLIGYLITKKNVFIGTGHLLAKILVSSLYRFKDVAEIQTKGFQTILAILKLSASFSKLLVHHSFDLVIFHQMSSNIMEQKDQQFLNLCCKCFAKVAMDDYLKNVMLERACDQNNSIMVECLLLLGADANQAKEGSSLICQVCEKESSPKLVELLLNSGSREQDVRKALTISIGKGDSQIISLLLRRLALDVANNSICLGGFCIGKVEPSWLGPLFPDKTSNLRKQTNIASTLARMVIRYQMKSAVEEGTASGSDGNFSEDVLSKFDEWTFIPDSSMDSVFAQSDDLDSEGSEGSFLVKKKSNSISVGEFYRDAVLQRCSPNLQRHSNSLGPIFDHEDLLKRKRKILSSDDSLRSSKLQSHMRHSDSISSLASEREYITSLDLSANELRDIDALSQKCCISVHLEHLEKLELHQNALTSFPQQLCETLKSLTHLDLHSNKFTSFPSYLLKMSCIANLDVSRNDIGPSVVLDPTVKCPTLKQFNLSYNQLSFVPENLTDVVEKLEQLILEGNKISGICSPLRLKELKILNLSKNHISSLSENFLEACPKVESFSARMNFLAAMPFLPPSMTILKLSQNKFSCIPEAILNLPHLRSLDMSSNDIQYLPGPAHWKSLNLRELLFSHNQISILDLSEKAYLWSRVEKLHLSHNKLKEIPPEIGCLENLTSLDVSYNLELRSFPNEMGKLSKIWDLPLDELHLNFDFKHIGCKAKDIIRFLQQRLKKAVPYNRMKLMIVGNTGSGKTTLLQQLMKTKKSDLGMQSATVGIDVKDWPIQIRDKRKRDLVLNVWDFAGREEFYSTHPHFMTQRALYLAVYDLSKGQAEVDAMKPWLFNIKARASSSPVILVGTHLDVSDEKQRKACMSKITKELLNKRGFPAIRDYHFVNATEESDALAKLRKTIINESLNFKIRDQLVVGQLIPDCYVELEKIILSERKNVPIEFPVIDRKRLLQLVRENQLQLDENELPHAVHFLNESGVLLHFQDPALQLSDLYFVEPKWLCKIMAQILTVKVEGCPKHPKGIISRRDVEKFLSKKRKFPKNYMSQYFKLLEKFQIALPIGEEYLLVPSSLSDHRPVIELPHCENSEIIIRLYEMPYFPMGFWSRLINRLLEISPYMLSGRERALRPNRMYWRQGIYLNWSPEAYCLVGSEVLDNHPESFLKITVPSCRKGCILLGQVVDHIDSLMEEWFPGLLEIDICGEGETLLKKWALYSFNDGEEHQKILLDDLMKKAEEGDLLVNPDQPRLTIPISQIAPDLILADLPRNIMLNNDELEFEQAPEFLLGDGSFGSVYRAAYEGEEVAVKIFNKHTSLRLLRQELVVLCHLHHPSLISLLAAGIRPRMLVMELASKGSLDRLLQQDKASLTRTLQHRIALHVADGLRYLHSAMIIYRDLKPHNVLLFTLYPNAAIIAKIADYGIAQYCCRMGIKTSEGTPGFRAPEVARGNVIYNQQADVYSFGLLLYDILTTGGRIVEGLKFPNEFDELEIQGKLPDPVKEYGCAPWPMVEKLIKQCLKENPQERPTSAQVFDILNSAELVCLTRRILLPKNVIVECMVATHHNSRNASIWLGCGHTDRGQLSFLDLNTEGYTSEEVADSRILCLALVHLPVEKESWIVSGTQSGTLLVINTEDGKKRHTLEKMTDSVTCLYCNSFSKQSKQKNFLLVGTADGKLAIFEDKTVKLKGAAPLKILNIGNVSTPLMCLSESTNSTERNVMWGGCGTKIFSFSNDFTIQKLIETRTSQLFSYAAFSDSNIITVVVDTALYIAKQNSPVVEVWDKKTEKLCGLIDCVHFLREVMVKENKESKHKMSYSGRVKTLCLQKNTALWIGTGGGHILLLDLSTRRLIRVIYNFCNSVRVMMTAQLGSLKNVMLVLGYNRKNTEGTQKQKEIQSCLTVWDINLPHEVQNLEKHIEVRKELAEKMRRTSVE
# UniProt P05067, 672-713 limits assumed: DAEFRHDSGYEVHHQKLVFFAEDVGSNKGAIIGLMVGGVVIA
# UniProt P34913, whole entry: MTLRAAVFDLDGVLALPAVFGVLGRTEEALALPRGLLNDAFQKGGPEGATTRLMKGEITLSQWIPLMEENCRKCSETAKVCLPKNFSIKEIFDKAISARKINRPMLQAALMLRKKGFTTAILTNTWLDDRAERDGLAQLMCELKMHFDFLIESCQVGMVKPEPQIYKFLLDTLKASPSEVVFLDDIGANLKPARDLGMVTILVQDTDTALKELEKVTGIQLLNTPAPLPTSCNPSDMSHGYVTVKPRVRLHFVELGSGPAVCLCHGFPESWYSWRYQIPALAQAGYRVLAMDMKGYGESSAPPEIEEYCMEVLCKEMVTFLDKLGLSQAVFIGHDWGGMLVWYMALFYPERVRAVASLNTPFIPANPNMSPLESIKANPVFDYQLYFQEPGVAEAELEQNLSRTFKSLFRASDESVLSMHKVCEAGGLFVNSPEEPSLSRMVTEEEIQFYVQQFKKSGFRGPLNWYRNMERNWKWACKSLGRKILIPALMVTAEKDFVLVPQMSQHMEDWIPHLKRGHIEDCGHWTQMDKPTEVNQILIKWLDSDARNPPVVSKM
# UniProt Q9NV35, whole entry: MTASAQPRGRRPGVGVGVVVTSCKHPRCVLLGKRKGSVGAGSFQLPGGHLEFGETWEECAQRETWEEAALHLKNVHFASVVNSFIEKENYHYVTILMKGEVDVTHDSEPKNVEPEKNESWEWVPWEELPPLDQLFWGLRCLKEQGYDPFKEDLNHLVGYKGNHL
# UniProt Q00961, 20-1237 limits assumed: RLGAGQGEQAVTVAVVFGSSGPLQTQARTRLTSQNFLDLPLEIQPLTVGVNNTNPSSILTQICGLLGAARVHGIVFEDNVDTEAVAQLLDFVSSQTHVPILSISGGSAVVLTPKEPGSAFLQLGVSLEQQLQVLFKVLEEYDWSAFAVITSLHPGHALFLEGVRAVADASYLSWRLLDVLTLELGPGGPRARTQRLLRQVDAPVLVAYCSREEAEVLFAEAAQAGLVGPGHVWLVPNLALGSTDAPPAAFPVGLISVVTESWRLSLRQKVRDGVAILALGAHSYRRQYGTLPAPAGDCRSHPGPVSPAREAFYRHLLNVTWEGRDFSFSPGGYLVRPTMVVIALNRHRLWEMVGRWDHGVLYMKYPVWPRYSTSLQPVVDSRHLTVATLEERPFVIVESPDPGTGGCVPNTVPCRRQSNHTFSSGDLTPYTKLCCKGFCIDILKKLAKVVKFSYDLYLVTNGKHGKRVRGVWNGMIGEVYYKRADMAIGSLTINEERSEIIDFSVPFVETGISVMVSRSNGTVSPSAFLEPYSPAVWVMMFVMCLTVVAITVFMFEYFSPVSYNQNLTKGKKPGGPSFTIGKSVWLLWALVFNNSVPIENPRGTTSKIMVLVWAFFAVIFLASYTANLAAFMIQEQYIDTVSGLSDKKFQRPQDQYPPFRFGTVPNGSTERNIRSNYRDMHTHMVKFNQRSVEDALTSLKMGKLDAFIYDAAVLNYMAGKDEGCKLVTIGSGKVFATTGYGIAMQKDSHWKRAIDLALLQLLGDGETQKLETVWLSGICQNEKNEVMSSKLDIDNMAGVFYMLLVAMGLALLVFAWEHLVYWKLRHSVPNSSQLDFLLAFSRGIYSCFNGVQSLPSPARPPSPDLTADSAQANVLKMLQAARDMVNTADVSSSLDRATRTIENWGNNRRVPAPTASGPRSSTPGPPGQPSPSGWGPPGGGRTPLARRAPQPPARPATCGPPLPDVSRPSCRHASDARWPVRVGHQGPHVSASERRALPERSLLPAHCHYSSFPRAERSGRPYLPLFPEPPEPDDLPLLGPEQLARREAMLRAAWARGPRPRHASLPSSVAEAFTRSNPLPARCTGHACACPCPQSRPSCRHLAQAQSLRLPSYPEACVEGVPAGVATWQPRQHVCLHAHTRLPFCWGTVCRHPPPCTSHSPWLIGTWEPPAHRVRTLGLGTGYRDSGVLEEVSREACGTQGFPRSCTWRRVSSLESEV
# UniProt P14902, whole entry: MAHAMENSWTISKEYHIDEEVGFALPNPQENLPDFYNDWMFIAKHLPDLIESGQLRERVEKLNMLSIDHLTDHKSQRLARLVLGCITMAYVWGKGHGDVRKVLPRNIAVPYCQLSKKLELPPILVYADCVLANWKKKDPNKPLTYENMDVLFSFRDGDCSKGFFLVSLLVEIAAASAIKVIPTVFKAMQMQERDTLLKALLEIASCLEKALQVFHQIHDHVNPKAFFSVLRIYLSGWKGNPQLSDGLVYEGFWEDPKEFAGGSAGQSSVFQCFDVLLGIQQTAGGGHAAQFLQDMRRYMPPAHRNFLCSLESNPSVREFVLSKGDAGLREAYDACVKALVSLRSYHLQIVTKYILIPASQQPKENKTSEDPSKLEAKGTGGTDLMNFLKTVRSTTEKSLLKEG
# UniProt Q13304, whole entry: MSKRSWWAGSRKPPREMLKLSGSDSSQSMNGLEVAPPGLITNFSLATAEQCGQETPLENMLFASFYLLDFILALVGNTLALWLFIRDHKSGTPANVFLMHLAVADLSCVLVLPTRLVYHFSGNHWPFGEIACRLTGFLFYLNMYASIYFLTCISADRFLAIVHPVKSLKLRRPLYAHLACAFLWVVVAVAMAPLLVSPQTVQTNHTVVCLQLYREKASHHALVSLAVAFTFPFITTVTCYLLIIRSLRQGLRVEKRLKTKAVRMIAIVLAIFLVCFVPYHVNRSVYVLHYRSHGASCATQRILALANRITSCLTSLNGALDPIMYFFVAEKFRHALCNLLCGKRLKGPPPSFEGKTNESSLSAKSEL
# Protocols differ between the studies behind these lines. ± gives the spread as reported.
# ESR1: Estrogen receptor (ESR1, Homo sapiens, UniProt P03372)
Structure (SMILES),tested on,assay,system,conditions,measurement,result
CCCCCCCCCCCCNC(=S)NCCCC[C@H](NC(=O)c1ccccc1)C(=O)N[C@H](C)C(=O)N[C@@H](CCCNC(=N)N)C(N)=O,"NAD-dependent protein deacetylase sirtuin-2 (SIRT2, Homo sapiens, UniProt Q8IXJ6)","deacetylation, inhibitor",,"NAD+ 500 µM, with: acetylated peptide 50 µM",IC50,0.17 ± 0.01 µM
COc1cc([C@@H]2c3cc4c(cc3[C@H](C=C(C)C)[C@H]3COC(=O)[C@H]23)OCO4)cc(OC)c1OC,Leishmania infantum,,"promastigote, iRFP",,EC50,> 100 µM
CCOC(=O)c1ccc(-c2nc(C)c(CSc3ccc(OCC(=O)O)c(C)c3)s2)cc1,HEK293T,,,18 h,CC50,> 80 µM
COc1cc(C(=O)N2CCC(N3CCN(C)CC3)CC2)ccc1Nc1ncc2c(n1)N(C1CCC1)c1ccccc1C(=O)N2C,"Leucine-rich repeat serine/threonine-protein kinase 2 (LRRK2, Homo sapiens, UniProt Q5S007)","kinase activity, Adapta",,,IC50,0.021 ± 0.001 µM
CC(C)NC(=O)CSc1nc2ccc(NC(=O)CSc3ccccc3C(F)(F)F)cc2s1,ESR1,"reporter gene, antagonist",HEC-1 transfected ERα luciferase reporter,,IC50,20 to 50 µM
NC(=O)c1cn(-c2ccc(F)cc2)c2ccc(CN3CCCSCC3)cc2c1=O,"Metabotropic glutamate receptor 2 (Grm2, Rattus norvegicus, UniProt P31421)","calcium mobilization, negative allosteric modulator",,,IC50,0.138 µM
Cc1nc(-c2ccc(-c3csc(-c4cnccc4C(F)(F)F)n3)cc2)no1,"ALK tyrosine kinase receptor (ALK, Homo sapiens, UniProt Q9UM73)",ELISA,,,IC50,40 µM
COc1ccc2[nH]c3c(C)c4cc[n+]([O-])cc4c(C)c3c2c1,"Toll-like receptor 3 (Homo sapiens, UniProt O15455)","reporter gene, SEAP reporter",HEK-Blue hTLR3,with: poly(I:C),IC50,1.29 ± 0.68 µM
COc1ccc2[nH]cc(/C=C/c3ccncc3)c2c1,"Amyloid-beta precursor protein, amyloid-beta peptide (APP, Homo sapiens, UniProt P05067)","Aβ42 oligomerisation, ELISA",,,IC50,13.1 µM
COC(=O)c1ccc(O[C@H]2CC[C@H](NC(=O)NC34CC5CC(CC(C5)C3)C4)CC2)cc1 (relative stereo),"Bifunctional epoxide hydrolase 2 (EPHX2, Homo sapiens, UniProt P34913)","enzyme activity, inhibitor, fluorescence",,with: CMNPC substrate,IC50,0.0038 µM
COC(=O)[C@@H]1C(C=Nc2nccs2)=Cc2cc3c(cc2[C@H]1c1cc(OC)c(OC)c(OC)c1)OCO3,Leishmania infantum,,"promastigote, iRFP",,EC50,51.6 ± 1.8 µM
C[C@@H](CC(=O)NCc1cccc2ccccc12)NC(=O)[C@H](CC(=O)NC(C)(C)C)NC(=O)OC(C)(C)C,"Proteasome component C5/PSMB5 (Homo sapiens, UniProt P20618+P28074)","enzyme activity, inhibitor",,with: suc-LLVY-AMC,IC50,> 100 µM
O=c1[nH]c2ccc(S(=O)(=O)N3CCNCC3)cc2o1,"Nucleotide triphosphate diphosphatase NUDT15 (NUDT15, Homo sapiens, UniProt Q9NV35)","enzyme activity, inhibitor, malachite green",,with: dGTP,IC50,> 100 µM
O=C(O)CNC(=O)c1cc(C(=O)O)cc([C@H]2CCN[C@@H]2C(=O)O)c1,"Glutamate receptor ionotropic, NMDA 2C, with GluN1 (Rattus norvegicus, UniProt Q00961)","ion current, antagonist, two-electrode voltage clamp",Xenopus oocytes,"GluN1/GluN2C, with: glycine 100 µM and glutamate 1 µM",IC50,9.94 ± 0.52 µM
O=C(NO)c1cccc(F)c1F,"Protein deacetylase HDAC6 (HDAC6, Homo sapiens, UniProt Q9UBN7)","enzyme activity, inhibitor, electrophoretic mobility shift",,with: FAM-RHKK(Ac)-NH2 1 µM,IC50,0.747 µM
CN1CC[C@H](c2c(O)cc(O)c3c(=O)cc(-c4ccc(C(C)(C)C)cc4)oc23)[C@H](O)C1,"Cyclin-dependent kinase 2, part with cyclin A (CDK2, Homo sapiens, UniProt P24941)","enzyme activity, inhibitor",,"with cyclin A, with: histone H1 substrate",IC50,0.567 µM
N#Cc1ccc2[nH]cc(/C=C/c3ccc([N+](=O)[O-])cc3F)c2c1,"Indoleamine 2,3-dioxygenase 1 (IDO1, Homo sapiens, UniProt P14902)","enzyme activity, inhibitor",,,IC50,> 100 µM
CCOC(=O)C(C(=O)/C=C/c1ccc(O)c(OC(F)(F)F)c1)C(=O)/C=C/c1ccc(O)c(OC(F)(F)F)c1,"Amyloid-beta precursor protein, Aβ aggregates (APP, Homo sapiens, UniProt P05067)","binding, thioflavin T competition",,,IC50,0.13 µM
COc1ccc(N2CCN(C(=O)CCCn3c(=S)[nH]c4ccccc4c3=O)CC2)cc1,ESR1,"reporter gene, antagonist",HEC-1 cells transfected with ERα,with: estradiol 1 nM,IC50,7.4 µM
O=C(Nc1ccc(Cl)cc1)C(NS(=O)(=O)c1cccs1)c1ccc(F)cc1 (stereo not drawn),"Uracil nucleotide/cysteinyl leukotriene receptor, long isoform (GPR17, Homo sapiens, UniProt Q13304)","calcium mobilization, antagonist",1321-N1,,IC50,12.2 ± 0.79 µM
CCN1CCN(c2ccc(Nc3ncc4c(n3)N(C)C(=O)N(c3cc(NC(=O)c5cccc(C(F)(F)F)c5)ccc3C)C4)cn2)CC1,"Fibroblast growth factor receptor 4 (FGFR4, Homo sapiens, UniProt P22455)","enzyme activity, inhibitor, radiometric kinase",,,IC50,< 0.001 µM

# Repeated from above:
Structure (SMILES),tested on,assay,system,conditions,measurement,result
COc1ccc2[nH]c3c(C)c4cc[n+]([O-])cc4c(C)c3c2c1,"Toll-like receptor 3 (Homo sapiens, UniProt O15455)","reporter gene, SEAP reporter",HEK-Blue hTLR3,with: poly(I:C),IC50,1.29 ± 0.68 µM
CCOC(=O)c1ccc(-c2nc(C)c(CSc3ccc(OCC(=O)O)c(C)c3)s2)cc1,HEK293T,,,18 h,CC50,> 80 µM
COC(=O)[C@@H]1C(C=Nc2nccs2)=Cc2cc3c(cc2[C@H]1c1cc(OC)c(OC)c(OC)c1)OCO3,Leishmania infantum,,"promastigote, iRFP",,EC50,51.6 ± 1.8 µM
